Measurements collected from several papers.
Every numbered part comes from another study and shows a few of its results, in no order. Substitutions count along the parent as printed.

Series 1
Target: CCNA1, cyclin fold, Cln2 fusion (human)
Method: yeast growth competition, sequencing
Matrix: yeast
Notes: weak parent motif
Relative to: not given
Reading: higher = stronger binding
Parent: PKN2 docking peptide (human); VSAVQKLDFSDTM
Substitution	normalised enrichment score
A3W	0.178
S10V	0.233
D11H	0.201
F9K	0.403

Series 2
Target: ABI1, truncated, D143A, DHFR fusion (Arabidopsis thaliana)
Method: DHFR PCA, deep sequencing
Matrix: yeast
Notes: methotrexate growth selection, single substitutions
Together with: (+)-ABA 2500 µM
Relative to: wild-type fitted maximum
Reading: higher = stronger binding
Parent: PYL1, truncated, DHFR fusion (Arabidopsis thaliana); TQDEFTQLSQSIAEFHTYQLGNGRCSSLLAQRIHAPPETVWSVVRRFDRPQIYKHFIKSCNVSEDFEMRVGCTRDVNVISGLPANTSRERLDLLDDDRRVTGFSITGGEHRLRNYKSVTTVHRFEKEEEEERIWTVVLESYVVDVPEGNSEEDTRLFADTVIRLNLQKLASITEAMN; partner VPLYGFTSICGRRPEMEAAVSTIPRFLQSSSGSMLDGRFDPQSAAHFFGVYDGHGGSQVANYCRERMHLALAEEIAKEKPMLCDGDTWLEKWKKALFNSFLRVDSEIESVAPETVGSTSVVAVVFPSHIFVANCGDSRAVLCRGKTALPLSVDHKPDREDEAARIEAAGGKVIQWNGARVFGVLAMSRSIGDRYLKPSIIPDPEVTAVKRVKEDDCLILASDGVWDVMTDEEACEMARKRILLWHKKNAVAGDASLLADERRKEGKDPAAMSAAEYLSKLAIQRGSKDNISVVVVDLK
Substitution	relative binding score [%]
N177R	84
E109L	96.8
F47C	5.77
D144Y	75.2
R88S	99
L166S	31.3

Series 3
Target: Interferon regulatory factor 5, full length, phosphomimetic (IRF5, Homo sapiens, UniProt Q13568-2, residues 1-514, K96S/S451D/S453D/S456D/S462D)
Method: protein-binding microarray
Molecule type: double-stranded DNA, one strand shown
Matrix: in vitro
Concentration: 250 nM
Notes: 60-bp whole probe
Together with: salmon DNA 0.4 mg/ml
Relative to: random background probes
Reading: higher = stronger binding
Constant ends, left off below: GCCTAGCAC … GTGCTAGGTCTTGATTCGCTTGACGCTGCTG
Oligonucleotide	log fluorescence [z-score]
TCAAGTTTACCCATCTCCAG	-0.0156
TCCCTTTTCATGCTCTTATA	1.08
AACATACTCGTTTACATTTT	0.908
ACTTCTCCATTTTTCTAGTC	0.747
TCATGTCCCCCTTTTATACT	0.008
GACGGTATGCTTCTCCTGAC	-0.066

Other studies, line by line
Molecule	target	assay	test system	setting	how to read	endpoint	result
PhoQ, residues 284 288 289 292 302 303 MLMVEA	PhoP, residues 12 14 15 18 19 DLLYY (Escherichia coli, UniProt P23836)	Sort-seq, item: YFP reporter	E. coli	PhoQ-PhoP variant library, together with: 10 µM Mg2+	relative to: high Mg2+ state, higher = stronger signaling	fold induction	1.27

A few entries again (series 1):
Substitution	normalised enrichment score
S10V	0.233
